Results of several laboratories.
Protocols differ between the studies behind these lines. ± marks the error that the study gave.
Ubiquitin carboxyl-terminal hydrolase 39 ZnF-UBD domain: Ubiquitin carboxyl-terminal hydrolase 39, ZnF-UBD domain (Homo sapiens, UniProt Q53GS9)
Sequence of UniProt Q53GS9 (whole entry, looked up): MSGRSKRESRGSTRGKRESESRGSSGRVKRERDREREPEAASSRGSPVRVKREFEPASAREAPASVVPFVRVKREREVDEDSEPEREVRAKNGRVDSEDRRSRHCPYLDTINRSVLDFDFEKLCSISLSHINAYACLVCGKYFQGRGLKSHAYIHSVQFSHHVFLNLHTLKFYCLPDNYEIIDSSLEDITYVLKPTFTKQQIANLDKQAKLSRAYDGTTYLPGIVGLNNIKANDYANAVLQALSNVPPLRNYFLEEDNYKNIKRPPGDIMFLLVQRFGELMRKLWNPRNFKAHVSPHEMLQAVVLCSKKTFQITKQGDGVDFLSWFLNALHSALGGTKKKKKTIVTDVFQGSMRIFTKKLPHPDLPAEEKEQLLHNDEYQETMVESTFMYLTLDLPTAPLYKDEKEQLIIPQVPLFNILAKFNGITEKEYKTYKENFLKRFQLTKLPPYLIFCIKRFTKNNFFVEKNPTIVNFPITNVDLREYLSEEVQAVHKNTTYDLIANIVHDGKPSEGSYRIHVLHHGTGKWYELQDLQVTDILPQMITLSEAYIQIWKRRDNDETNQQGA

`c1ccc(-c2n[nH]cc2-c2ccnc3ccccc23)nc1` — result for “log2 fold change”: 1.81 (kinase binding, competitor, MIB/MS competition, refers to: MKK2; Candida albicans cell lysate; 10 µM; relative to: DMSO).
For `C[C@H](Oc1ccc(Br)cc1-c1ccon1)C(=O)O`, “difference from placebo” read -0.835% (muscle velocity recovery cycle; human, tibialis anterior muscle; 400 mg once daily, first response latency at 30 Hz, multiple ascending dose).
With `O=C(O)Cc1nc2ccccc2o1` the Kd was greater than 1000 µM (Ubiquitin carboxyl-terminal hydrolase 39 ZnF-UBD domain).
The plasma glucagon of `C[C@@H](O)CCOC(=O)C[C@@H](C)O` is reported as 21 pM (human; oral drink, dose not given, 240 min post dose, median, all participants).
`NC(=O)c1cnc2[nH]ccc2c1N[C@@H]1[C@@H]2CC3C[C@H]1C[C@@](O)(C3)C2` — result for “change from baseline”: -0.32% (flow cytometry, refers to: CD8+ memory T cells; Japanese healthy subjects, peripheral blood; oral, 10 mg twice daily, day 7).
`CC1CCCC(CC(=O)Nc2nnc(S(N)(=O)=O)s2)C1` (centres unmarked) gave a Ki of 0.0209 µM (Alpha-carbonic anhydrase (Enterococcus faecium, UniProt Q3XYE8); CO2 hydration, inhibitor, stopped-flow kinetics).
For `O=P(O)(O)C(Cl)(Cl)P(=O)(O)O`, the Iba1-positive area was 0.45% (immunostaining; mouse, sham-operated, meninges; dose not given, day 1; relative to: total area).
`CSc1nc(C)c(CCC(=O)O)c(=O)[nH]1` gave a Kd of 389 µM (Ubiquitin carboxyl-terminal hydrolase 39 ZnF-UBD domain).
`C[n+]1cccc(C(N)=O)c1` — result for “z-scored log2 fold change”: 0.233 (binding, equilibrium dialysis LC-MS; 5 µM, thermostabilized A2AR-BRIL construct; relative to: no-protein control, direction not given).
For `CC(C)NCC(O)c1ccc(O)c(O)c1` (centres unmarked), the sarcomere length was 1.72 µm (ventricular cardiomyocytes, C57BL/6 mouse; dose not given, 0.016 s).
`OC[C@H]1O[C@H](O[C@@H]2[C@@H](O)[C@H](O)[C@@H](O)[C@H](O)[C@@H]2O)[C@H](O)[C@@H](O)[C@H]1O` — result for “z-scored log2 fold change”: 0.0582 (binding, equilibrium dialysis LC-MS; 5 µM, thermostabilized A2AR-BRIL construct; relative to: no-protein control, direction not given).
For `OC(CCN1CCCCC1)(c1ccccc1)C1CC2C=CC1C2` (centres unmarked), “change in EEG Beta3-power Fz-Cz” read 5.9% (resting-state EEG; healthy elderly humans; oral, 4 mg, eyes closed, LS mean; relative to: baseline).
For `N#Cc1ccc2c(c1)[C@H]1CCCN(C(=O)c3ccc4[nH]cnc4c3)[C@H]1C2`, “change from baseline” read 8 nmol/L (refers to: cortisol; human, Phase II trial; oral, 20 mg once daily, HPA axis, mean).
`O=C(O)CC(C(=O)O)C(O)C(=O)O` (racemic) — result for “z-scored log2 fold change”: -0.049 (binding, equilibrium dialysis LC-MS; 5 µM, thermostabilized A2AR-BRIL construct; relative to: no-protein control, direction not given).
Under “log2 fold change”, `N#Cc1ccn2c(-c3ccncc3)c(-c3ccc(F)cc3)nc2c1` is recorded as -0.169 (kinase binding, competitor, MIB/MS competition, refers to: HRK1; Candida albicans cell lysate; 1 µM; relative to: DMSO).
`Nc1ccn([C@@H]2O[C@H](COP(=O)(O)OP(=O)(O)OCC(O)CO)[C@@H](O)[C@H]2O)c(=O)n1` (some centres unmarked): “z-scored log2 fold change” 0.101 (binding, equilibrium dialysis LC-MS; 5 µM, thermostabilized A2AR-BRIL construct; relative to: no-protein control, direction not given).
With `COCCOCCOCCOc1ccc(C#Cc2cc(CN3CCN(Cc4cc(C#Cc5ccc(OCCOCCOCCOC)cc5)cc(C(=O)O)n4)CCN(Cc4cc(SC[C@H](N)C(=O)NC[C@H]5CC[C@H](C(=O)N[C@@H](Cc6ccc7ccccc7c6)C(=O)NCCCC[C@H](NC(=O)N[C@@H](CCC(=O)O)C(=O)O)C(=O)O)CC5)cc(C(=O)O)n4)CC3)nc(C(=O)O)c2)cc1` [yttrium-86 labelled] the tissue uptake was 11.7 ± 0.03 %ID/g (mouse, liver; intravenous, 6 h).
